Measurements pooled from the literature.
Protocols differ between the studies behind these lines. ± gives the spread as reported.

Structure (SMILES) | species | sample | route | dose | setting | relative to | oral bioavailability
CC[C@@](O)(c1cnc(C(F)(F)F)c(Cl)c1)c1c2ccn(C3CC3)c(=O)c2nn1C | Sprague-Dawley rat, male |  | oral | 3 mg/kg |  | IV 1 mg/kg | 68%
[2H]c1cc(C)c(NC(=O)c2cnc(Nc3cc(N4CCC(O)CC4)nc(C)n3)s2)c(Cl)c1 | Sprague-Dawley rats male | plasma | oral | 5 mg/kg | IV 1 mg/kg |  | 18.3%
Cn1nc2c(=O)n(C3CC3)ccc2c1[C@](O)(c1ccc(C(F)(F)F)nc1)C1CC1 | Sprague-Dawley rat, male |  | oral | 3 mg/kg |  | IV 1 mg/kg | ~35%
CN1CC(Oc2cnc(C#N)cc2-c2ccn3nc(NC(=O)C4CC4)cc3c2)C1 | rat, Sprague-Dawley, male | plasma | oral | 5 mg/kg |  |  | 60%
O=C1c2ccncc2C(=O)c2c1[nH]c1ccccc21 | Sprague-Dawley rat, female | plasma | oral | 1 mg/kg |  | intravenous AUC(0-t) | 12.6%
CCOC(=O)[C@@]12C[C@@H]1[C@@H](n1ccc3c(NC)nc(C#Cc4ccc(Cl)s4)nc31)[C@H](O)[C@@H]2O | Sprague-Dawley rat, male | plasma | oral | 10 mg/kg |  |  | 59.6%
COCC(=O)N1CCC[C@H](C(=O)NCc2nc(-c3ccccc3)cs2)C1 | Sprague-Dawley rat, male | plasma | oral | 3 mg/kg |  |  | 29%
Cc1nc(-c2cnc(NC(C)C)n(C)c2=O)ccc1Oc1ccnc(-c2cnn(C)c2)c1 | Sprague-Dawley rat, male | plasma | oral | 10 mg/kg | crossover study |  | 76.4%
Cc1nc(Nc2ncc(C(=O)Nc3c(C)cccc3Cl)s2)cc(N2CC[C@@H](N)C2)n1 | Sprague-Dawley rats male | plasma | oral | 5 mg/kg | IV 1 mg/kg |  | < 1%
CNC(=O)c1cccc(-c2ccc(O[C@H]3O[C@H](CO)[C@@H](O)[C@H](O)[C@@H]3O)c(C)c2)c1 | male Sprague-Dawley rat | plasma | oral | 10 mg/kg | unit not given | IV 3 mg/kg | 0.0134
N=C(N)NCCNC(=O)C1(Nc2ccccc2)CCN(Cc2ccccc2)CC1 | male Sprague-Dawley rats | plasma |  | 50 and 2.5 mg/kg |  |  | 1.2 ± 0.2%
CC(C)(N)COCC(=O)N1CCC[C@H](C(=O)NCc2nc(-c3ccc(C(F)(F)F)cc3)cs2)C1 | Sprague-Dawley rat, male | plasma | oral | 3 mg/kg |  |  | 1.3%
Cc1ccc(-c2ccccc2C(=O)NC[C@@]2(C3CC3)NC(=O)NC2=O)cc1 | rat Wistar male |  | oral |  |  |  | 54%
COCC(=O)N1CCC[C@H](C(=O)NCc2nc(-c3ccc(C#N)cc3)cs2)C1 | Sprague-Dawley rat, male | plasma | oral | 3 mg/kg |  |  | 54%
COc1cc(-c2cc(C(C)=O)n3ccccc23)c(OC)cc1Cn1ccnc1 | Sprague-Dawley rat, male | plasma | oral | 5 mg/kg |  |  | 50.3%

Excerpt of the above:
Structure (SMILES) | species | sample | route | dose | setting | relative to | oral bioavailability
CNC(=O)c1cccc(-c2ccc(O[C@H]3O[C@H](CO)[C@@H](O)[C@H](O)[C@@H]3O)c(C)c2)c1 | male Sprague-Dawley rat | plasma | oral | 10 mg/kg | unit not given | IV 3 mg/kg | 0.0134
